{"data": "Measured values pooled from the literature", "note": "Each line is one published result; not all experiments were run side by side. Numbers after ± are the reported error."}
{"Substance": "CC(C=CC1(C)C(C)CCC(=O)C1C)=CCc1c(O)c(C=O)c(C)c(Cl)c1OC(=O)c1cccnc1 (stereo not drawn)", "organism": "Wickerhamomyces anomalus", "test": "O2 uptake, inhibitor", "system": "mitochondria", "conditions": "with: succinate 15 mM", "measurement": "IC50", "result": "740 nM"}
{"Substance": "N=C(N)c1ccc(-c2ccc(-c3ccc(C(=N)N)s3)s2)cc1", "organism": "Trypanosoma brucei rhodesiense", "system": "STIB900, mice, acute infection model", "conditions": "intraperitoneal, 5 mg/kg for 4 days, parasite-free at 60 days", "measurement": "cured mice", "result": "0%"}
{"Substance": "O=C1NC(=S)S/C1=C\\c1cn(Cc2ccccc2)c2ccc([N+](=O)[O-])cc12", "organism": "Trypanosoma brucei rhodesiense", "system": "trypomastigotes, IL1501", "measurement": "IC50", "result": "> 73000 nM"}
{"Substance": "Cc1ccc(S(=O)(=O)N2C(=O)CSC2c2ccccc2)cc1 (stereo not drawn)", "organism": "Streptococcus pneumoniae", "test": "broth microdilution", "system": "ATCC 49619", "measurement": "MIC", "result": "128 µg/mL"}
{"Substance": "CC[C@H]1OC(=O)[C@H](C)[C@@H](O[C@H]2C[C@@](C)(OC)[C@@H](O)[C@H](C)O2)[C@H](C)[C@@H](O[C@@H]2O[C@H](C)C[C@H](N(C)C)[C@H]2O)[C@](C)(O)C[C@@H](C)CN(C)[C@H](C)[C@@H](O)[C@]1(C)O", "organism": "other non-fermenting bacteria", "system": "community-acquired pneumonia patients", "conditions": "Fine score 70 or more", "measurement": "sensitive strains", "result": "0%"}
{"Substance": "NS(=O)(=O)c1nnc(NC(=O)CC2CCCCC2)s1", "organism": "Neisseria gonorrhoeae", "test": "broth microdilution", "system": "clinical isolates", "measurement": "MIC90", "result": "2 µg/mL"}
{"Substance": "CC(C)(O/N=C(\\C(=O)N[C@@H]1C(=O)N2C(C(=O)[O-])=C(C[n+]3ccccc3)CS[C@H]12)c1csc(N)n1)C(=O)O", "organism": "Enterococcus faecalis", "test": "microbial growth, broth dilution", "system": "ATCC29212", "measurement": "MIC", "result": "256 µg/mL"}
{"Substance": "CC[C@H]1OC(=O)[C@H](C)[C@@H](O[C@H]2C[C@@](C)(OC)[C@@H](O)[C@H](C)O2)[C@H](C)[C@@H](O[C@@H]2O[C@H](C)C[C@H](N(C)C)[C@H]2O)[C@](C)(O)C[C@@H](C)C(=O)[C@H](C)[C@@H](O)[C@]1(C)O", "organism": "Streptococcus pneumoniae", "system": "community-acquired pneumonia patients", "conditions": "Fine score 70 or more", "measurement": "sensitive strains", "result": "100%"}
{"Substance": "C[C@H]1c2cccc(O)c2C(=O)C2=C(O)[C@]3(O)C(=O)C(C(N)=O)=C(O)[C@@H](N(C)C)[C@@H]3[C@@H](O)[C@@H]21", "organism": "Staphylococcus aureus", "test": "checkerboard broth microdilution", "system": "clinical isolate 14-99", "conditions": "with: magainin II", "measurement": "FIC index", "result": 1}
{"Substance": "C/C=C(C)/C=C/C=C/[C@H](OC)[C@@H](C)[C@@H](OC)[C@@H](C)CCc1oc2c(O)c(OC)cc(OC)c2c(=O)c1C", "organism": "Wickerhamomyces anomalus", "test": "O2 uptake, inhibitor", "system": "mitochondria", "conditions": "with: malate and pyruvate 15 mM", "measurement": "IC50", "result": "42 nM"}
{"Substance": "C=CCc1ccc(O)c(OC)c1", "organism": "Cryptococcus neoformans", "system": "CN, PBS", "conditions": "2 x MIC, up to 48 h, 37 °C", "how to read": "relative to: untreated", "measurement": "time to 1 log10 kill", "result": "7 h"}
{"Substance": "C[C@@H](NS(=O)(=O)c1ccc(F)c(C(=O)Nc2ccc(F)c(F)c2)c1)C1CC1", "organism": "hepatitis B virus", "test": "particle gel Southern blot", "system": "HepDES19", "conditions": "5 µM, 6 d", "measurement": "capsid-associated HBV DNA", "result": "decreased"}
{"Substance": "Clc1nc(OCc2ccccc2)c2[nH]cnc2n1", "organism": "Helicobacter pylori", "test": "microbial growth, absorbance", "system": "26695", "conditions": "95 µM", "measurement": "inhibition", "result": "~35%"}
{"Substance": "interferon alfa", "organism": "hepatitis B virus", "test": "immunofluorescence, item: HBcAg", "system": "HBV-infected HepG2-NTCP", "conditions": "7 days post-infection, dosed before, during, after", "measurement": "EC50", "result": "320 ± 67 nM"}
{"Substance": "O=C(N[C@H](Cc1c[nH]c2ccccc12)C(=O)Nc1ccncc1)c1ccc(-c2cc(C(F)(F)F)ccc2F)cc1F", "organism": "Trypanosoma cruzi", "system": "Y luc, mouse", "conditions": "oral, 50 mg/kg twice daily, 4 days, vehicle 20% Solutol", "measurement": "parasite inhibition", "result": "> 90%"}
{"Substance": "C[C@H]1c2cccc(O)c2C(=O)C2=C(O)[C@]3(O)C(=O)C(C(N)=O)=C(O)[C@@H](N(C)C)[C@@H]3[C@@H](O)[C@@H]21", "organism": "Litomosoides sigmodontis", "system": "mouse", "conditions": "i.p., 25 mg/kg/day for 10 days", "measurement": "worm length reduction", "result": "78.3%"}
{"Substance": "CCC(=O)O[C@H]1[C@H](C)O[C@@H](O[C@H]2[C@H](N(C)C)[C@@H](O)[C@H](O[C@H]3[C@@H](CC=O)C[C@@H](C)[C@@H](O)/C=C/C=C/C[C@@H](C)OC(=O)C[C@@H](O)[C@@H]3OC)O[C@@H]2C)C[C@@]1(C)O", "organism": "Mycolicibacterium vaccae", "system": "IMET 10670, DMSO-methanol", "conditions": "50 µL of 2.0 mM, 24 h, 37 °C, 9 mm well", "measurement": "inhibition zone diameter", "result": "40 mm"}
{"Substance": "CO/N=C(\\C(=O)N[C@@H]1C(=O)N2C(C(=O)O)=C(CSc3nc(=O)c(=O)[nH]n3C)CS[C@H]12)c1csc(N)n1", "organism": "Staphylococcus aureus", "test": "checkerboard broth microdilution", "system": "clinical isolate 21-99", "conditions": "with: magainin II", "measurement": "FIC index", "result": 0.25}
{"Substance": "Cc1ccc(S(=O)(=O)N2C(=O)CSC2c2ccc(C(C)C)cc2)cc1 (stereo not drawn)", "organism": "Streptococcus pneumoniae", "test": "broth microdilution", "system": "ATCC 49619", "measurement": "MIC", "result": "> 256 µg/mL"}
{"Substance": "O=C(/C=C/c1cccc(O)c1)c1ccc(Cl)cc1", "organism": "Plasmodium knowlesi", "test": "parasite growth", "conditions": "24 h, blood stage", "measurement": "EC50", "result": "36800 nM"}
{"Substance": "CC[C@H]1OC(=O)[C@H](C)[C@@H](O[C@H]2C[C@@](C)(OC)[C@@H](O)[C@H](C)O2)[C@H](C)[C@@H](O[C@@H]2O[C@H](C)C[C@H](N(C)C)[C@H]2O)[C@](C)(OC)C[C@@H](C)C(=O)[C@H](C)[C@@H](O)[C@]1(C)O", "organism": "Staphylococcus aureus", "test": "checkerboard broth microdilution", "system": "ATCC 25923", "conditions": "with: ranalexin", "measurement": "FIC index", "result": 0.25}
{"Substance": "COc1c(Cl)c(C)c(C=O)c(O)c1C/C=C(C)/C=C/[C@@]1(C)[C@H](C)CCC(=O)[C@@H]1C", "organism": "Wickerhamomyces anomalus", "test": "O2 uptake, inhibitor", "system": "mitochondria", "conditions": "with: NADH 1 mM", "measurement": "IC50", "result": "9500 nM"}
{"Substance": "N/C(=N\\O)c1ccc(-c2cncc(-c3ccc(/C(N)=N\\O)nc3)n2)cn1", "organism": "Trypanosoma brucei rhodesiense", "system": "STIB900, mouse, acute infection", "conditions": "oral, 25 mg/kg daily, 4 days, parasite-free survival 60 days", "measurement": "cured mice", "result": "100%"}
{"Substance": "CC[C@H](C)[C@H](NC(=O)CNC(=O)[C@H](CCC(=O)O)NC(=O)[C@H](CO)NC(=O)[C@@H](NC(=O)[C@H](CCCNC(=N)N)NC(=O)[C@H](CCCCN)NC(=O)[C@H](CCCCN)NC(=O)[C@H](C)NC(=O)[C@H](CO)NC(=O)[C@H](CC(N)=O)NC(=O)[C@H](CCC(=O)O)NC(=O)[C@H](CC(C)C)NC(=O)[C@H](CCCCN)NC(=O)[C@H](CCCCN)NC(=O)[C@H](C)NC(=O)[C@@H](NC(=O)[C@H](CCCCN)NC(=O)[C@H](CO)NC(=O)[C@H](CC(C)C)NC(=O)[C@H](Cc1c[nH]c2ccccc12)NC(=O)[C@@H](N)CO)[C@@H](C)O)[C@@H](C)CC)C(=O)N[C@@H](C)C(=O)N[C@H](C(=O)N[C@@H](C)C(=O)N[C@H](C(=O)N[C@@H](CCC(N)=O)C(=O)NCC(=O)NCC(=O)N1CCC[C@H]1C(=O)N[C@@H](CCCNC(=N)N)C(=O)O)[C@@H](C)CC)[C@@H](C)CC", "organism": "Staphylococcus aureus", "test": "broth microdilution", "system": "methicillin-susceptible clinical isolates, Mueller-Hinton broth", "conditions": "18 h, 35 °C", "measurement": "MIC50", "result": "16 µg/mL"}
{"Substance": "CO/N=C(\\N)c1ccc(-c2cncc(-c3ccc(/C(N)=N\\OC)cc3)n2)nc1", "organism": "Trypanosoma brucei rhodesiense", "system": "STIB900, mouse, acute infection", "conditions": "oral, 25 mg/kg daily, 4 days, parasite-free survival 60 days", "measurement": "cured mice", "result": "75%"}
{"Substance": "C[C@@H](O)[C@H]1C(=O)N2C(C(=O)O)=C(S[C@@H]3CN[C@H](C(=O)N(C)C)C3)[C@H](C)[C@H]12", "organism": "Staphylococcus aureus", "test": "checkerboard broth microdilution", "system": "clinical isolate 14-99", "conditions": "with: magainin II", "measurement": "FIC index", "result": 0.375}
{"Substance": "CCCC(=O)Nc1ncnc2c1ncn2[C@@H]1O[C@@H]2COP(=O)(O)O[C@H]2[C@H]1OC(=O)CCC", "organism": "Bufo marinus", "test": "agonist", "system": "urinary bladder", "how to read": "relative to: deamino-oxytocin", "measurement": "relative maximal response", "result": 0.8}
{"note": "Repeated from above:"}
{"Substance": "CC[C@H]1OC(=O)[C@H](C)[C@@H](O[C@H]2C[C@@](C)(OC)[C@@H](O)[C@H](C)O2)[C@H](C)[C@@H](O[C@@H]2O[C@H](C)C[C@H](N(C)C)[C@H]2O)[C@](C)(O)C[C@@H](C)CN(C)[C@H](C)[C@@H](O)[C@]1(C)O", "organism": "other non-fermenting bacteria", "system": "community-acquired pneumonia patients", "conditions": "Fine score 70 or more", "measurement": "sensitive strains", "result": "0%"}
{"Substance": "NS(=O)(=O)c1nnc(NC(=O)CC2CCCCC2)s1", "organism": "Neisseria gonorrhoeae", "test": "broth microdilution", "system": "clinical isolates", "measurement": "MIC90", "result": "2 µg/mL"}
